Assay results gathered from unrelated publications.
A part holds a random share of what one study measured.

Series 1
Organism: Saccharomyces cerevisiae
Effect on: binding
Technique: competitive growth deep sequencing
Form: peptide
Strain: cyclin D2-Cln2 fusion strain
Tested at: concentration not given
Notes: peptide tiling library
Reading: direction not given
| Molecule | growth enrichment score |
| --- | --- |
| QYQVVDDIVSKLVFDF | 0.76 |
| RDLFDCDFGDLTPLDF | 1.55 |
| ARKRLELGNLGNPQ | -1.64 |
| GLPDFVFQQQPVESEA | 0.982 |
| VEEEFFALRKRTPSAG | 0.637 |
| EAAPPTQEAQGETEPT | 0.758 |
| KPHVSDEEEEEPPFYH | 1.52 |
| DVSERGYVILPNDYFE | 0.891 |

Series 2
Target: Centromere-binding protein 1, full length, N-terminal tag (CBF1, Saccharomyces cerevisiae, UniProt P17106, residues 1-351)
Chain of UniProt P17106 (whole entry, looked up): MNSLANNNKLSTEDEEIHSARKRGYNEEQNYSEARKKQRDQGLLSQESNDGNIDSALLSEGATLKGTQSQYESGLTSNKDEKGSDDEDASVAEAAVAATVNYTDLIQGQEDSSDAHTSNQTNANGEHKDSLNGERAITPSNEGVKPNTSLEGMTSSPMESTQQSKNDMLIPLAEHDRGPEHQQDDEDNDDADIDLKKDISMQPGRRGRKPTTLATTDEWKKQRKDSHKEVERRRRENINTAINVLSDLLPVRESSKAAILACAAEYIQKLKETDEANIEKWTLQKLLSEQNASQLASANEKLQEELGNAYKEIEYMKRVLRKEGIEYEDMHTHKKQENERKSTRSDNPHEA
Technique: protein-binding microarray
Form: double-stranded DNA, one strand shown
Sample: in vitro
Tested at: 0.8 µM
Notes: whole 60-bp probe, no competitor
Reading: higher = stronger binding
Constant ends, left off below: … GTCTTGATTCGCTTGACGCTGCTG
| Oligonucleotide | fluorescence intensity [a.u.] |
| --- | --- |
| GAACCGAAAATAAAGCACATGTAAAGCATTAAGTAG | 847 |
| GAATAACACATTGGTAGTGTGACTACTAGTTGATAG | 717 |
| GAAGTGTGAACTCTTCACATGAGAAGGGAATAATAG | 589 |
| CCTAACTACTATACTTTCGTGGGATAGCTTCGTACA | 497 |
| CTACCGACGAGGCTTACCGTGATCCCTCTCCAGTTC | 525 |
| CTAGCTATCTTCAACGTGATAGTTTATGCTACTTTC | 823 |
| GAATCATCATTGGTGGTGGTGACACTGCCACTGTAG | 527 |
| GAAACTTTGCGTTATCATCATATGATCTCAACATAG | 1130 |
| TGTACGAAGCTATATAAGCACGTTATAGTAGTTAGG | 666 |
| CTACGAAAAGGTGCTCACGTTATAAGGCTAACATTC | 671 |
| TGTACGAAGCTATAGCTCATGCATATAGTAGTTAGG | 538 |
| TGTACGAAGCTATTTGATGTTACTATAGTAGTTAGG | 495 |
| GAAAGTTCATCGTCGATCATGATGATTATCAGCTAG | 514 |
| CCTAACTACTATAGAGTCATGAGATAGCTTCGTACA | 564 |
| CTATAGTTTTGTCTCAACGTGTATTTTATCGGTTTC | 544 |
| GAAACGAGAAACGCGCACGCACTTTCCACCATTTAG | 514 |
| GAAATAGCTGAGCATCATGTGAGTAAACGAGTATAG | 857 |
| TGTACGAAGCTATCTCATATGATTATAGTAGTTAGG | 529 |
| GAATGATAAAAGCATGATGTGACGAATATCTAATAG | 674 |
| GAAAGTCAATGGCATCATGCGGGAACGTGCAGTTAG | 679 |
| CTACATTGTAGCAAAAATGTGCGTGAAGCGTCTTTC | 530 |
| CTAACCCCTCATTTCCACGGGGTAAAAAAAAAATTC | 599 |
| GAATTTTTCCATTGCACCGTGACTCTGGATTAATAG | 762 |
| GAAAAACTACATTATCTCGTGAAGAATATTTAATAG | 621 |
| GAAACTTTCGGAAATCACGCAAATATTATGCACTAG | 548 |

Series 3
Target: Interferon regulatory factor 5, full length, phosphomimetic (IRF5, Homo sapiens, UniProt Q13568-2, residues 1-514, S451D/S453D/S456D/S462D)
Technique: protein-binding microarray
Form: double-stranded DNA, one strand shown
Sample: in vitro
Tested at: 940 nM top
Notes: 60-bp whole probe
Added: salmon DNA 0.4 mg/ml
Baseline: random background probes
Reading: higher = stronger binding
Constant ends, left off below: GCCTAGCAC … GTCTTGATTCGCTTGACGCTGCTG
| Oligonucleotide | fitted relative affinity |
| --- | --- |
| AAGTTTATACCTTAGGTTTTGTGCTAG | -0.142 z-score |
| TTAGGTATCGAAACTGGGTTAGTGCTA | 6.54 z-score |
| GACGGTATCGGTCTCGGGAAGTGCTAG | 8.42 z-score |
| TTAGATTTCGGGTTTCGCTTAGTGCTA | 3.83 z-score |
| TCAATCATTGCTTTCTCACTGTGCTAG | 0.989 z-score |
| GTAGATTTCAGTATCGATTAGTGCTAG | 5.52 z-score |
| GACGATATCGGGTTTCGAGAAGTGCTA | 1.88 z-score |
| GACGGTTTCGGTCTCGAGACGTGCTAG | 12.8 z-score |
| TTAGATCTCTGTTTCGATTAGTGCTAG | 4.07 z-score |
| TTAGGTATCGAGACTGGGTTAGTGCTA | 4.93 z-score |
| ACTTTTTTCTGATTGAATCTGTGCTAG | 0.726 z-score |
| GACGAACTGGGAACTGGAGACGTGCTA | -0.196 z-score |
| TTAGGACTGGGTTTTCGGTTAGTGCTA | 1.05 z-score |
| TCAGCTATGTTGTCCAGGACTGTGCTA | -0.414 z-score |
| CCAGTTTTGTGTGTGTGTTTGTGCTAG | 1.09 z-score |
| CAGGCAGGAGAAGTGAATGAGTGCTAG | -0.263 z-score |

Series 4
Target: RNA binding protein fox-1 homolog 2, RRM domain, GST-SBP tag (RBFOX2, Homo sapiens, UniProt O43251-10, residues 100-194)
Technique: RNA Bind-n-Seq
Form: RNA
Sample: in vitro
Tested at: 365 nM
Notes: natural RNA segment, single round, ends assumed
Baseline: no-protein control
Reading: higher = stronger binding
Constant ends, left off below: GGGAGUUCUACAGUCCGACGAUC … UGGAAUUCUCGGGUGCCAA
Target sequence (chain): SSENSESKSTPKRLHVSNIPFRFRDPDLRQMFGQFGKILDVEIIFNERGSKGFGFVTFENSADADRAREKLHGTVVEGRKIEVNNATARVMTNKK
| Oligonucleotide | RBNS enrichment (R) |
| --- | --- |
| GCAAGAAGGAAAUAGCCACCGUCUACAGAUGGCUUAGUUAAGUCAUCCACAGCCCAAGGGCGGGGCUAUGCCUUGUCUGGGGACCCUGUAGAGUCACUGACCCUGGAGCG | 0.436 |
| AGUGGACCAGGAAGCGCCCCUUGCCUCUUAACGCAAACCACAGCAGCAACCUGAAGGGAUUCCUUCAGCUUACCUGGUAACCACAGCUAGUAACUAAAACACCCUUCUCU | 0.348 |
| AUUUUUCCCAGAGGCUAUCUUGAUUCUUUGGAAUGUUUAAAGUGUGCCUUGCCAGAGAGCUUACGAUCUAUAUCUGCUGCUUCAGAGCCUUCCCUGAGGAUGGCUCUGUU | 0.255 |
| CUCCCACUUUUUACAAUGUCUAGUCAUUUUCAUAGUGCCCCACAUUCAAGAACCAGACAACAGGAUGCCUUAGAAGCUGGCUGGGUUUUGGGUCAGGGGCUCAGUAUGAG | 2.19 |
| AGUCAGUCAGUCAGUCAUACUGGGAGAAGCUAGCCUUGCAUCCCUAGCACUGUCUCUUCCUGGCAGUGCUUUCUGCUCGCCCGACAGACAGCCUGUCGUGUCUCUUUGGA | 3.92 |
| UGCCCUCCUCCAACUUGUUAAAACAUGUUUAUUCUAAAGUUCGAAUGGAUAAAUUUGAGUAUAAAGGUUUUGUUAUAAAACUGUUCUUUAGUGUAAGGCUGCAUUGUGGG | 0.794 |
| GCAUCCUGUCCAUUUUUAACCUGUGUUCUGCCAGUAUGACUGUGUAGCUCAGUCAUAUUGAACAGGGAGGUGGGGAUGCUGUUGAUGGGCUGUUAAAUCGGAAAGGAUGU | 0.544 |
| UGGAAGGACAUAGUUCUUCUAAAAUUUCCUGUUAAUUGGCAUGUACGUCUCAUUUAAAGCAAAUUAAGUAGGACAAGCAAGUCAGUAAAAUAGAAGUAUUAAAAAGAAUC | 0.408 |
| UUACGAAUUCUGCCAUGCAGCGAUUCUUUAAGGAUAGUUUGUUUUAUUUAUCUUGUACAUAUGUAUUUAGAAAACUUUUAAACUUGAAAAAUAAAUAAUACUUAAUGUUA | 0.594 |
| AAGGAGGAAGCUCACUCACUCAAGAGCACCUCCAUGUACCGCGUCACACUGGAAGGAGGCUAAGUCUCAGUCUUCAAGUUCUGGACUUUCUUCUCUCCAGUGGCACUUGU | 0.241 |
| AGGCUAUCCCUGUCGCACGUUGGAUCCUGGAUAAGCUAGUCCCUUCGUUUGCGUUGAGAAUUGGCAUGCAGUGUGUGUGAGCCGAGGGCCUCCUCAGUGUUCCACAAGCU | 3.6 |
| CUGGGGUUACAGGUGUGAUCACCUUGCUGGCUUGUGAGGUGCUGGGGACAACCCAGGGCUUCGUGCAUGUCAGGCACACACUCCCAACUAAGCUACAUCCCCAGUCCCUC | 1.56 |

Series 5
Target: Hepatocyte nuclear factor 3-alpha (Foxa1, Mus musculus, UniProt P35582, residues 1-468, full length assumed)
Chain of UniProt P35582 (whole entry, looked up): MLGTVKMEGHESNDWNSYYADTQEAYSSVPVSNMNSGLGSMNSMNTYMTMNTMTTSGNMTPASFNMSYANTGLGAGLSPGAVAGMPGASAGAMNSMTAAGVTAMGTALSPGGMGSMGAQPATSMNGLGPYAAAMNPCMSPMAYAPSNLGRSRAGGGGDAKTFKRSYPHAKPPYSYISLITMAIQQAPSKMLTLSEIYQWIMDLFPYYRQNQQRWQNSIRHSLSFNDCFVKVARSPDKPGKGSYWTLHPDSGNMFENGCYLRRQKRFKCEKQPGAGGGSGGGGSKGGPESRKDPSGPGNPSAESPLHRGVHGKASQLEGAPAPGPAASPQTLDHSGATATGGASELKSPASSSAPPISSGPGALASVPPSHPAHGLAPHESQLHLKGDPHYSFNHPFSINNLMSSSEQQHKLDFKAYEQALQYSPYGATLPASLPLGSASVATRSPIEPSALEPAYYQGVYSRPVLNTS
Technique: EMSA with sequencing
Form: double-stranded DNA, one strand shown
Sample: in vitro
Tested at: 10 and 20 nM
Notes: whole designed probe, mean of two concentrations, ends assumed
Baseline: negative control set to 0
Reading: higher = stronger binding
Constant ends, left off below: GTGAGCGGTGCCCATTGATGGGGAAC … TTTCACTGGGATCGTGGGGAC
| Oligonucleotide | normalised bound fraction |
| --- | --- |
| AGGTGAATTGGCTGCTTCCATCCTGGCTTGGAACTTCAGACATAGAAGCCTTGGGACTCTGACTCATGCTTCTCAGGACTTTCTCCAGATTCAGCAAACAAGCATCTCTGTGGATCACGTGACCTTAGCCAGGGATGTTGGTGAAACTGTGTGTTGGTCTAGGTACCTAGCCCATGCTAGGTGCTCATCGAAT | 0.0585 ratio |
| AAATGACTTTGGGAAAAGGTTTTGGAAGATTGAGAAGAAAAAAGAGAAGGTAATTTGATGTCACCTTTTTCCTGAGAGAATGAAGGTATCCTTGTTTACTTTAAAAAAAAAAAAAAAAAGAGGCGGGGGAGTTGGGGGATGAATTGGTGTTGGAACTTGTCTTGGAAAAAGTTGTTAATTTAGTTTGGGGACA | 0.35 ratio |
| ATAAAGCTATTTCTCTGCTATTTGAAAATACAATAGAAGAAACTGAGCCTTTTAGACATTCGTCAGCCTCTTCTAATAAACCTTTGTACTATGTAAACATCAGGAAATTCAAAGCTCGGAGACTTTTCCTATTCTTTTCCTCTAGACCTGACAATCAAACACTTCCCCGCTTCAACACATCTCATTTTCTAGA | 0.447 ratio |
| CATTTGCCTCCGTCCCCACCCCCAGCCTGCTGCCTCTCAGGTTCACACTTCCTGGGCTCAGAGTTTCATCCTGAGGCTGTTGGCTCAGCCAGAGCAAACAGAGACAGCACTAAAGTCAACAAAACCAGAGAGCAAGCAGCGCAGGTGACGTGGAAAAGAAAACTTGGAAGCCACAACAAAGGCATGTGGGCTG | 0.437 ratio |
| ACACTTCTTCCATTTCCTCAACTCCTAAACATTCATTTATTCATTCTTCATCACACAAAAATCTGAATCTGGCTTCTGCCCCCTACCCTCCTTATTTACTTTCTCAAATAGTATACATTTAGTCATTAAACAAACATACATACATGCATATTTTCAAGATTATCAAGCAATTCCTGTTTCAACTTTTCTTAAA | 0.46 ratio |
| CTCCTATTTGTTCTGTTTTTCTGAAAAACCCTAACATGTAACCAAATTACCCCTTTCTTCACACATCATTCTTCCAATCATGCTTTCTTTAAAATAAACAGCTAAATGTTTCTTCCTTTTAAGAAAGGTCTGTGTGCTACAGATTACCCTGCAAATGTTCTTTGTGACTATGTAGGAAAGATCAGGCACATCC | 0.104 ratio |
| AAGAAAAAAAAATACACTGCAAAACAGACTGCCTGTAGGAAATCATTTGAGTTTTTAAAAATGTGATCTCTTTGAGAGTAACCCAGTGTTTTCTTGTTTACTTATTTATTTTTTAGTTAAAATCAGGGAGCCTGATTTAAGAAGAAAAGTAGCCATTGAAAAAATAAAGTCACATGCATGCCTTTTGTCATAT | 0.385 ratio |
| ATGTAGTAATGGATTGGAGTTGGAGATATCAGTATGAATTCATGCTTAGTGTGATATAGACAGAAATGTATTTATAGATAAGATTATATATATGTCATTTTACACATATATATTTCCTTGCTATGTCAGCTGAGAAGGCATAGAAACAACAACAACTCAGTAGCAGTGAGCACCCTAGTGCCCAGATCTTGGT | 0.0348 ratio |

For quick reference, copied from above (series 3):
| Oligonucleotide | fitted relative affinity |
| --- | --- |
| TCAATCATTGCTTTCTCACTGTGCTAG | 0.989 z-score |
| TTAGGTATCGAGACTGGGTTAGTGCTA | 4.93 z-score |
| GACGGTATCGGTCTCGGGAAGTGCTAG | 8.42 z-score |
| GACGATATCGGGTTTCGAGAAGTGCTA | 1.88 z-score |
| CCAGTTTTGTGTGTGTGTTTGTGCTAG | 1.09 z-score |
| GACGAACTGGGAACTGGAGACGTGCTA | -0.196 z-score |
| TTAGGACTGGGTTTTCGGTTAGTGCTA | 1.05 z-score |
| GACGGTTTCGGTCTCGAGACGTGCTAG | 12.8 z-score |
